{"data": "Results gathered from unrelated publications", "lecA": "PA-I galactophilic lectin (lecA, Pseudomonas aeruginosa, UniProt Q05097)", "note": "± gives the spread as reported.", "chain of UniProt O35082 (whole entry, looked up)": "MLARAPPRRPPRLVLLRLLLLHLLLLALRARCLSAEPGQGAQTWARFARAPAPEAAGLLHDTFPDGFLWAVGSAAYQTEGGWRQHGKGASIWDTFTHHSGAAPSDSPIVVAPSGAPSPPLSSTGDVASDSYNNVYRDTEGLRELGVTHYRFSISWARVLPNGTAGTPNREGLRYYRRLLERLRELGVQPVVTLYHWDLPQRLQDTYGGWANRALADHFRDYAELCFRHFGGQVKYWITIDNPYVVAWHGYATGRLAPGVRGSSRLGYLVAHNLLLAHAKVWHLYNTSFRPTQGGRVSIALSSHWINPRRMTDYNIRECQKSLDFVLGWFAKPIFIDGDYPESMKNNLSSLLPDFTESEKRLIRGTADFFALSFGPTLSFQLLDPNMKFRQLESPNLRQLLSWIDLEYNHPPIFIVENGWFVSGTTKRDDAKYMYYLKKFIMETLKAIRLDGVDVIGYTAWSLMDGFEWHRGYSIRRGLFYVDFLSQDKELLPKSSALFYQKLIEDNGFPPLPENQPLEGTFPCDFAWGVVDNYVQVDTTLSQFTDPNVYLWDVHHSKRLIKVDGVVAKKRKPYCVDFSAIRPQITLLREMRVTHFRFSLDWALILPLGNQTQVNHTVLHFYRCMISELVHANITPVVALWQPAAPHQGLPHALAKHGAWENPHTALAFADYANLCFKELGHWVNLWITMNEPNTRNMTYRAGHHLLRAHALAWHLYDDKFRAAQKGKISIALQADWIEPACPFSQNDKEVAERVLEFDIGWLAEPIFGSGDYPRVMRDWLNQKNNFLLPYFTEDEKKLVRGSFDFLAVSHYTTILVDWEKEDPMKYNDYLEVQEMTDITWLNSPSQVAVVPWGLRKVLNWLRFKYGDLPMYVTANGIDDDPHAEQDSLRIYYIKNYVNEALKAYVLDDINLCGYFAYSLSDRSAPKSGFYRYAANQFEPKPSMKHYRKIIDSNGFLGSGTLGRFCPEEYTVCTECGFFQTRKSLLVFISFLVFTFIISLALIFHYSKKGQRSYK", "chain of UniProt P97287 (152-308, looked up)": "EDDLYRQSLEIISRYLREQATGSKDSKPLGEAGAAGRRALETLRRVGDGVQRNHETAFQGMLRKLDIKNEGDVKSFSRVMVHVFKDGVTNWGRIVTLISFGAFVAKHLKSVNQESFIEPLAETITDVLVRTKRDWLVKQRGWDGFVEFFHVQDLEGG", "chain of UniProt O66465 (whole entry, unmodified, looked up)": "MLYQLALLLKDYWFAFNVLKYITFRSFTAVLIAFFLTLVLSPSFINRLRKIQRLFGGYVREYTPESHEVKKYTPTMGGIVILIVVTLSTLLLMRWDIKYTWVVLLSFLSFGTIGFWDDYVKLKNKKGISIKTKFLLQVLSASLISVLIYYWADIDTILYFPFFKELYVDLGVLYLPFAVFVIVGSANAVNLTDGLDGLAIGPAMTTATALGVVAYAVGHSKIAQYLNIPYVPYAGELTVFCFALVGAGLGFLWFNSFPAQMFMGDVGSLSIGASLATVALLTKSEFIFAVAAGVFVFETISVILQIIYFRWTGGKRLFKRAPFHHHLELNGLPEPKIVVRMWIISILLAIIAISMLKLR", "chain of UniProt Q9NZC7 (whole entry, looked up)": "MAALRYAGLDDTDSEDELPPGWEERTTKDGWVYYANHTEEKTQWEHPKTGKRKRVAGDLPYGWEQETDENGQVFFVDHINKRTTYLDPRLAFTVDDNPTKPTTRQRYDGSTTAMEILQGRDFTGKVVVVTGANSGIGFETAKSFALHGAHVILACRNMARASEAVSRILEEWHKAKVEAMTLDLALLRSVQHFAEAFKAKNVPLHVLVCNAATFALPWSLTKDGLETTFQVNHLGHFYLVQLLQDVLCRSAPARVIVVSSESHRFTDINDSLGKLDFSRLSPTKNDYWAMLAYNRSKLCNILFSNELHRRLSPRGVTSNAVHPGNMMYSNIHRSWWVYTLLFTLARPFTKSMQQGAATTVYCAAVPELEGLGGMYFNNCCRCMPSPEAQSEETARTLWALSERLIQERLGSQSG", "chain of UniProt P35269 (whole entry, looked up)": "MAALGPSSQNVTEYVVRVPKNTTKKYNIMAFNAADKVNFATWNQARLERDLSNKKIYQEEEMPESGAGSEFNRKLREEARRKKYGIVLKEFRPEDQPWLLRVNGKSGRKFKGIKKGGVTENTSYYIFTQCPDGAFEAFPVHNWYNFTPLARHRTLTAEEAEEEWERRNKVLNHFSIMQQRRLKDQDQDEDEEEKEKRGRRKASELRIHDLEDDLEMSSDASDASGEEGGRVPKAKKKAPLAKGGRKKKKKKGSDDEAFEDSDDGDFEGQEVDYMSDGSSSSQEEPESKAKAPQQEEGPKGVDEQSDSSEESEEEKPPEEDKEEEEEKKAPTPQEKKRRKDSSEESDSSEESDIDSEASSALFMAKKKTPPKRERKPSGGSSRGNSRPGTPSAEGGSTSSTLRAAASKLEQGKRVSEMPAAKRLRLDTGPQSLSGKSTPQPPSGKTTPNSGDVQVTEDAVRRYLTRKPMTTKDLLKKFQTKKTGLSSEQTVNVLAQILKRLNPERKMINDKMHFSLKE", "chain of UniProt Q9ULV8 (whole entry, looked up)": "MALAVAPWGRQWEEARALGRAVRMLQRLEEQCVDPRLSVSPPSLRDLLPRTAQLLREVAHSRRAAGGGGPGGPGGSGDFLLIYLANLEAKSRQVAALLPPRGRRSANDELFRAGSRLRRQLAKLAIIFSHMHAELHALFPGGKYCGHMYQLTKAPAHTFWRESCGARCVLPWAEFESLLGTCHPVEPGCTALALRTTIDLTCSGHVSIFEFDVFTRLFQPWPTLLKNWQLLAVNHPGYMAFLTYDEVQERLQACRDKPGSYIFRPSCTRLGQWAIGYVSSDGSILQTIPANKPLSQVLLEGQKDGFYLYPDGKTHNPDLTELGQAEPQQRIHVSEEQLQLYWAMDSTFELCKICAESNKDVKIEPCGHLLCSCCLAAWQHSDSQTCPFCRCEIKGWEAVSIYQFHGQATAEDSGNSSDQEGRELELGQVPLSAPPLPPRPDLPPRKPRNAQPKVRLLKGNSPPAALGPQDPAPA", "chain of UniProt P22455 (whole entry, looked up)": "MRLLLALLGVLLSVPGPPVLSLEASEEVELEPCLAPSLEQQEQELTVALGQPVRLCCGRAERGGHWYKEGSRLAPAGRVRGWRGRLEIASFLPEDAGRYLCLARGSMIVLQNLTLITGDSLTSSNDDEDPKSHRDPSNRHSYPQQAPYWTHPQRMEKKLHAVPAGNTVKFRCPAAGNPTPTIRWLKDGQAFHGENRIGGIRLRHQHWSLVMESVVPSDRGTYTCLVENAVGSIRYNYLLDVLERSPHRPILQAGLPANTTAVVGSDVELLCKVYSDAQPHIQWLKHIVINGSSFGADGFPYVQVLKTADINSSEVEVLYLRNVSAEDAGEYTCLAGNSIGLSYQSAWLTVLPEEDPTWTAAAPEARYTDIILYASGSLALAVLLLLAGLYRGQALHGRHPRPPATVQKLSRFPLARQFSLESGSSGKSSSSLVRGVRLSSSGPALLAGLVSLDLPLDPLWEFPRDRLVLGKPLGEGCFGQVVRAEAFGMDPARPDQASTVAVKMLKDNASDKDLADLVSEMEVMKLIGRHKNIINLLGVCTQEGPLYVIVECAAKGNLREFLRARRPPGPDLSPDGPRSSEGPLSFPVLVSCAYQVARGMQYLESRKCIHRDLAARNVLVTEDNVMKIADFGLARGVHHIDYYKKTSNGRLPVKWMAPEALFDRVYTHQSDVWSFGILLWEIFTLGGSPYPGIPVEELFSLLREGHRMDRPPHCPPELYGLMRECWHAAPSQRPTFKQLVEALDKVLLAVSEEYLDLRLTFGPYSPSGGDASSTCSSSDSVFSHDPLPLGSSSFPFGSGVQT", "chain of UniProt Q07741 (whole entry, looked up)": "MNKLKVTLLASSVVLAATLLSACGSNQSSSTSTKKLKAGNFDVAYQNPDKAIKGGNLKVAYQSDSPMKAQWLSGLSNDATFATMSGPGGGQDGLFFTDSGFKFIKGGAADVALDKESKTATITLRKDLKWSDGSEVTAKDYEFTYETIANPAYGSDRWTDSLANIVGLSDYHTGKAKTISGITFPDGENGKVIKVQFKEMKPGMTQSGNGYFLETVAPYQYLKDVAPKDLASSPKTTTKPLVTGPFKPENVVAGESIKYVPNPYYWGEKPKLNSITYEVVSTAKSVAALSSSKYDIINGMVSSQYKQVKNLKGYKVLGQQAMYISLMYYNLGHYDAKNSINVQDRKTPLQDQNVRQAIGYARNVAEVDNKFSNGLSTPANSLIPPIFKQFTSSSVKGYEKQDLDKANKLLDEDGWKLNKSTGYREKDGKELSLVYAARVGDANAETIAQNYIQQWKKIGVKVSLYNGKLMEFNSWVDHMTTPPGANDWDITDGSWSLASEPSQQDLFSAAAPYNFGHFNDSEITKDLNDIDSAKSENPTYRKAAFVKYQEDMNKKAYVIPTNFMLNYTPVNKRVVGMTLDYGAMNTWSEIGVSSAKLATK", "chain of UniProt Q15109 (whole entry, looked up)": "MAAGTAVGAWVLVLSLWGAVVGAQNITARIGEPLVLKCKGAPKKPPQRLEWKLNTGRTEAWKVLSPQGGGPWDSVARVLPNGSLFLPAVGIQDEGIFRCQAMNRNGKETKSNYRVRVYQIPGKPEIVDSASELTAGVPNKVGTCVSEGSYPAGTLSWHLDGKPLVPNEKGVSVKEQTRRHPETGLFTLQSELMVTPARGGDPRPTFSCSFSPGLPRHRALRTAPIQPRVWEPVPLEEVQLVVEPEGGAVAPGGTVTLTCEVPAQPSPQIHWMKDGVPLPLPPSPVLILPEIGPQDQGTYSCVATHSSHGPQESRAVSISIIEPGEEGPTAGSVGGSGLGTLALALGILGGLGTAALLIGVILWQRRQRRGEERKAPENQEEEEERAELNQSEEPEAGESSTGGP"}
{"Compound": "CC(C)C[C@H](NC(=O)[C@@H](NC(=O)[C@@H](NC(=O)CN)[C@@H](C)O)C(C)C)C(=O)N1CCC[C@H]1C(=O)N[C@@H](C)C(=O)N[C@@H](C)C(=O)N1CCC[C@H]1C(=O)N[C@@H](Cc1ccc(O)cc1)C(=O)N[C@@H](CCCNC(=N)N)C(=O)N[C@@H](Cc1c[nH]cn1)C(=O)N[C@@H](CCCNC(=N)N)C(=O)N[C@@H](CC(N)=O)C(=O)NCC(=O)NCC(=O)NCC(=O)NCC(=O)NCC(=O)N[C@H](C(=O)N[C@H](C(=O)N[C@@H](CC(C)C)C(=O)N1CCC[C@H]1C(=O)N1CCC[C@H]1C(=O)N1CCC[C@H]1C(=O)N1CCC[C@H]1C(=O)N[C@@H](Cc1ccc(O)cc1)C(=O)N[C@@H](CCCNC(=N)N)C(=O)N[C@@H](Cc1c[nH]cn1)C(=O)N[C@@H](CCCNC(=N)N)C(=O)N[C@@H](CC(N)=O)C(=O)O)C(C)C)[C@@H](C)O", "target": "WW domain-containing oxidoreductase, WW1-WW2 tandem domains (WWOX, Homo sapiens, UniProt Q9NZC7)", "test": "ITC", "test system": "tandem WW1-WW2 domain", "setting": "pH 7.8, 20 °C, some values lower limits only", "Kd [µM]": "18 ± 3.3"}
{"Compound": "N=C(N)NCCC[C@H](NC(=O)[C@H](Cc1ccccc1)NC(=O)[C@@H]1CCCN1C(=O)[C@H](CO)NC(=O)[C@H](Cc1ccccc1)NC(=O)CNC(=O)[C@@H]1CCCN1C(=O)[C@@H]1CCCN1C(=O)[C@H](CCCNC(=N)N)NS(=O)(=O)c1ccc(C2=c3cc4c5c(c3Oc3c2cc2c6c3CCCN6CCC2)CCC[N+]=5CCC4)c(S(=O)(=O)[O-])c1)C(=O)O", "target": "Oligopeptide-binding protein OppA (oppA, Lactococcus lactis subsp. lactis, UniProt Q07741)", "test": "binding, fluorescence anisotropy", "setting": "pH 6, 30 °C, together with: dye-labelled peptide", "Kd [µM]": "45 ± 3"}
{"Compound": "CC[C@H](C)[C@H](NC(=O)[C@@H](NC(=O)[C@H](C)NC(=O)[C@H](CCC(=O)O)NC(=O)[C@H](CO)NC(=S)Nc1ccc2c(c1)C(=O)OC21c2ccc(O)cc2Oc2cc(O)ccc21)C(C)C)C(=O)N[C@H](C(=O)N[C@H](C(=O)N1CCC[C@H]1C(=O)N[C@@H](Cc1ccccc1)C(=O)N[C@@H](CC(C)C)C(=O)N[C@H](C(=O)N[C@@H](CC(N)=O)C(=O)N[C@@H](CC(C)C)C(=O)O)[C@@H](C)O)[C@@H](C)CC)C(C)C", "target": "Rgg transcriptional regulator (Streptococcus pneumoniae, UniProt A0A0E7KI02)", "test": "binder, fluorescence polarization", "setting": "20 min, pH 7.4, 20 °C, fluorescein-labelled peptide", "Kd [µM]": "50 ± 3.6"}
{"Compound": "CC(C)C[C@H](NC(=O)[C@@H]1CCCN1C(=O)[C@H](CC(=O)O)NC(=O)[C@H](CO)NC(=O)[C@H](C)NC(=O)c1cc(-c2ccccc2)nc2ccccc12)C(=O)NCC(=O)N[C@H](C(=O)N[C@H](C(=O)N[C@@H](CCCNC(=N)N)C(=O)NCC(=O)N[C@@H](CCCNC(=N)N)C(=O)N[C@@H](C)C(=O)N[C@@H](CCCNC(=N)N)C(=O)N[C@H](CCCNC(=O)CCOCCOCCOCCOCCNC(=O)CCCC[C@@H]1SC[C@@H]2NC(=O)N[C@@H]21)C(N)=O)C(C)C)C(C)C", "target": "Klotho (Kl, Mus musculus, UniProt O35082)", "test": "binding, biolayer interferometry", "Kd [µM]": "0.001 ± 0.0003"}
{"Compound": "CC[C@H](C)[C@@H]1NC(=O)[C@H](CCCNC(=N)N)NC(=O)[C@H](CC(=O)O)NC(=O)[C@H](CC(C)C)NC(=O)[C@H](CCCCN)NC(=O)[C@H](CC(C)C)NC(=O)CNC(=O)[C@H](Cc2ccccc2)NC(=O)[C@@H](NC(=O)CNC(=O)[C@H](CCCCN)NC(=O)[C@H](CO)NC(=O)[C@H](CC(C)C)NC(=O)CN)CSSC[C@@H](C(=O)O)NC(=O)CNC(=O)[C@H](CC(C)C)NC(=O)CNC(=O)[C@H](CO)NC(=O)[C@H](CCSC)NC(=O)[C@H](CO)NC(=O)CNC1=O", "target": "Aliphatic amidase expression-regulating protein (amiC, Pseudomonas aeruginosa, UniProt P27017)", "test": "binding, microscale thermophoresis", "setting": "pH 7.5, 25 °C", "Kd [µM]": "2 ± 0.3"}
{"Compound": "CC[C@H](C)[C@H](NC(=O)[C@H](CCC(=O)O)NC(=O)[C@H](CCCNC(=N)N)NC(=O)[C@H](C)NC(=O)[C@H](Cc1c[nH]c2ccccc12)NC(=O)[C@H](CCC(=O)O)NC(=O)[C@H](CCC(=O)O)NC(=O)[C@H](CCC(=O)O)NC(C)=O)C(=O)NCC(=O)N[C@@H](C)C(=O)N[C@@H](CCC(N)=O)C(=O)N[C@@H](CC(C)C)C(=O)N[C@@H](CCCNC(=N)N)C(=O)N[C@@H](CCCNC(=N)N)C(=O)N[C@@H](C)C(=O)N[C@@H](C)C(=O)N[C@@H](CC(=O)O)C(=O)N[C@@H](CC(=O)O)C(=O)N[C@@H](CC(C)C)C(=O)N[C@@H](CC(N)=O)C(=O)N[C@@H](C)C(=O)N[C@@H](CCC(N)=O)C(=O)N[C@@H](Cc1ccc(O)cc1)C(=O)N[C@@H](CCC(=O)O)C(=O)N[C@@H](CCCNC(=N)N)C(=O)N[C@@H](CCCNC(=N)N)C(=O)N[C@@H](CCCNC(=N)N)C(N)=O", "target": "Induced myeloid leukemia cell differentiation protein Mcl-1 homolog, residues 152-308 (Mus musculus, UniProt P97287)", "test": "binding, SPR", "Kd [µM]": 0.004}
{"Compound": "CC(C)CC(NC(=O)C(NC(=O)NC(C(=O)O)C(C)C)C1CCNC(=N)N1)C(=O)NCCCNC(C(=O)O)C(OC1OC(CN)C(O)C1O)C1OC(n2ccc(=O)[nH]c2=O)C(O)C1O (stereo not drawn)", "target": "Phospho-N-acetylmuramoyl-pentapeptide-transferase (mraY, Aquifex aeolicus, UniProt O66465, K70A)", "test": "binding, ITC", "Kd [µM]": 0.0639}
{"Compound": "COc1ccc(-c2cnc3[nH]cc(C#Cc4cccnc4)c3c2)cc1OC", "target": "Cyclin-G-associated kinase (GAK, Homo sapiens, UniProt O14976)", "test": "binding", "Kd [µM]": 0.28}
{"Compound": "CC(=O)NCC(=O)N[C@@H](CO)C(=O)NCC(=O)N[C@@H](COP(=O)(O)O)C(=O)N1CCC[C@H]1C(=O)N[C@@H](CO)C(=O)N[C@@H](C)C(=O)N[C@@H](C)C(=O)N[C@@H](C)C(=O)N[C@@H](CO)C(=O)N[C@@H](CO)C(=O)N[C@@H](CO)C(=O)N[C@@H](Cc1c[nH]c2ccccc12)C(=O)N[C@@H](Cc1c[nH]cn1)C(=O)N[C@@]1(C)CCCC=CCCC[C@@](C)(C(=O)N[C@@H](CCC(=O)O)C(=O)N[C@@H](CCC(=O)O)C(=O)NCC(=O)N[C@@H](CCC(N)=O)C(=O)N[C@@H](CC(C)C)C(=O)N[C@@H](Cc2ccc(O)cc2)C(=O)NCC(N)=O)NC(=O)[C@H]([C@@H](C)O)NC(=O)[C@H](Cc2ccccc2)NC(=O)[C@H](CC(C)C)NC1=O", "target": "General transcription factor IIF subunit 1, C-terminal domain (Homo sapiens, UniProt P35269)", "test": "binding", "setting": "pH 7.4, 298 K", "Kd [µM]": "105 ± 2"}
{"Compound": "CCCCCCCC(=O)N[C@@H](CCCCNS(=O)(=O)c1cccc2c(N(C)C)cccc12)C(=O)N[C@H](C(=O)N[C@@H](CCN)C(=O)N[C@H]1CCNC(=O)[C@H]([C@@H](C)O)NC(=O)[C@H](CCN)NC(=O)[C@H](CCN)NC(=O)[C@H](CC(C)C)NC(=O)[C@@H](Cc2ccccc2)NC(=O)[C@H](CCN)NC1=O)[C@@H](C)O", "target": "lipopolysaccharide", "test": "binding, fluorescence titration", "test system": "Pseudomonas aeruginosa", "setting": "pH 7.0", "Kd [µM]": "1.2 ± 0.2"}
{"Compound": "COc1ccc2c(c1)c(C(=O)O)c(C)n2CCc1ccc(OC)c(OC)c1", "target": "E3 ubiquitin-protein ligase CBL-C (Homo sapiens, UniProt Q9ULV8)", "test": "binding, NMR", "Kd [µM]": 1100}
{"Compound": "CC[C@H](C)[C@@H]1NC(=O)[C@@H]2CCCN2C(=O)[C@H](Cc2c[nH]c3ccccc23)NC(=O)[C@H](CO)NC(=O)[C@H](Cc2c[nH]c3ccccc23)NC(=O)[C@H](CC(N)=O)NC(=O)[C@H](CCCCN)NC(=O)[C@H](CCSC)NC(=O)[C@@H]2CSCCC(=O)N3CN(CN(C3)C(=O)CCSC[C@H](NC(=O)[C@H](C)N)C(=O)N3CCC[C@H]3C(=O)N[C@@H](Cc3ccccc3)C(=O)NCC(=O)N2)C(=O)CCSC[C@@H](C(=O)N[C@H](C(=O)N[C@@H](CC(N)=O)C(=O)N[C@@H](CCCCN)C(=O)N(C)CC(=O)N(C)CC(=O)N(C)CC(=O)N(C)CC(=O)N(C)CC(=O)N(C)CC(=O)N[C@@H](CCCCNC(=O)c2ccc(C(=O)O)c(-c3c4ccc(=O)cc-4oc4cc(O)ccc34)c2)C(N)=O)[C@@H](C)O)NC(=O)[C@H](Cc2c[nH]c3ccccc23)NC1=O", "target": "Nectin-4, extracellular domain (Rattus norvegicus, UniProt D3ZET1)", "test": "binding, fluorescence polarization", "Kd [µM]": 0.0918}
{"Compound": "CC[C@H](C)[C@H](NC(=O)[C@H](Cc1c[nH]cn1)NC(=O)[C@H](CCCCNC(=O)[C@@H](NC(=O)[C@H](CCCCN)NC(=O)[C@H](Cc1ccccc1)NC(=O)[C@H](CCCCNC(=O)[C@H](CC(C)C)NC(=O)[C@@H]1CCCN1C(=O)[C@H](CCCCN)NC(=O)CCS[C@@H]1O[C@H](CO)[C@H](O)[C@H](O)[C@H]1O)NC(=O)[C@H](CC(C)C)NC(=O)[C@@H]1CCCN1C(=O)[C@H](CCCCN)NC(=O)CCS[C@@H]1O[C@H](CO)[C@H](O)[C@H](O)[C@H]1O)[C@@H](C)CC)NC(=O)[C@@H](NC(=O)[C@H](CCCCN)NC(=O)[C@H](Cc1ccccc1)NC(=O)[C@H](CCCCNC(=O)[C@H](CC(C)C)NC(=O)[C@@H]1CCCN1C(=O)[C@H](CCCCN)NC(=O)CCS[C@@H]1O[C@H](CO)[C@H](O)[C@H](O)[C@H]1O)NC(=O)[C@H](CC(C)C)NC(=O)[C@@H]1CCCN1C(=O)[C@H](CCCCN)NC(=O)CCS[C@@H]1O[C@H](CO)[C@H](O)[C@H](O)[C@H]1O)[C@@H](C)CC)C(N)=O", "target": "lecA", "test": "isothermal titration calorimetry", "setting": "pH 7.5, 25 °C, together with: 25 mM CaCl2", "Kd [µM]": "0.4 ± 0.1"}
{"Compound": "O=C(/C=C/c1ccccc1Br)c1ccc(OS(=O)(=O)c2cccs2)cc1", "target": "CP, capsid (Tobacco mosaic virus, UniProt P69687)", "test": "binding, MST", "Kd [µM]": 0.301}
{"Compound": "CC[C@H](C)[C@H](NC(=O)[C@H](CCCCN)NC(=O)[C@H](Cc1ccccc1)NC(=O)[C@H](CCCCNC(=O)[C@H](CC(C)C)NC(=O)[C@@H]1CCCN1C(=O)[C@H](CCCCN)NC(=O)c1ccc(O[C@@H]2O[C@H](CO)[C@H](O)[C@H](O)[C@H]2O)cc1)NC(=O)[C@H](CC(C)C)NC(=O)[C@@H]1CCCN1C(=O)[C@H](CCCCN)NC(=O)c1ccc(O[C@@H]2O[C@H](CO)[C@H](O)[C@H](O)[C@H]2O)cc1)C(N)=O", "target": "lecA", "test": "binding, ITC", "setting": "pH 7.5", "Kd [µM]": 0.083}
{"Compound": "CC(C)C[C@H](NC(=O)[C@H](CC(=O)O)NC(=O)[C@H](CCCCNCC(=O)O)NC(=O)[C@@H](N)Cc1ccccc1)C(=O)NCC(=O)N[C@@H](CCC(=O)O)C(=O)N[C@@H](CCC(=O)O)C(=O)O", "target": "Advanced glycosylation end product-specific receptor (AGER, Homo sapiens, UniProt Q15109)", "test": "binding, fluorescence", "Kd [µM]": 87}
{"Compound": "Nc1ncnc2c1ncn2[C@@H]1O[C@H](COP(=O)(O)OP(=O)(O)OP(=O)(O)O)[C@@H](O)[C@H]1O", "target": "dnaA (Escherichia coli, UniProt P03004, D118Q)", "test": "binding, radiometric", "Kd [µM]": 2.2}
{"Compound": "CC[C@H](C)[C@@H]1NC(=O)[C@@H]2CCCN2C(=O)[C@@H](NC(=O)[C@H](C)NC(=O)[C@H](CCSC)NC(C)=O)CSCc2cc3cc(c2)CSC[C@@H](C(=O)N[C@@H](Cc2ccc(O)cc2)C(=O)NCC(=O)N[C@@H](CO)C(=O)NCC(=O)N[C@@H](CO)C(=O)NCC(=O)N[C@@H](CO)C(=O)N[C@@H](CC(=O)O)C(=O)N[C@@H](Cc2ccc(O)cc2)C(=O)N[C@@H](CCCCN)C(=O)N[C@@H](CC(=O)O)C(=O)N[C@@H](CC(=O)O)C(=O)N[C@@H](CC(=O)O)C(=O)N[C@@H](CC(=O)O)C(=O)N[C@@H](CCCCN)C(N)=O)NC(=O)[C@H](Cc2ccc(O)cc2)NC(=O)[C@H](CCCNC(=N)N)NC(=O)[C@H](CC(C)C)NC(=O)[C@H]([C@@H](C)O)NC(=O)[C@H](CC(N)=O)NC(=O)[C@H]([C@@H](C)O)NC(=O)[C@H](CSC3)NC(=O)CNC1=O", "target": "Fibroblast growth factor receptor 4 (FGFR4, Homo sapiens, UniProt P22455)", "test": "binding, BLI", "Kd [µM]": "> 10"}
{"note": "Repeated from above:"}
{"Compound": "O=C(/C=C/c1ccccc1Br)c1ccc(OS(=O)(=O)c2cccs2)cc1", "target": "CP, capsid (Tobacco mosaic virus, UniProt P69687)", "test": "binding, MST", "Kd [µM]": 0.301}
